Experimental data pooled from the literature.
Each numbered part is a random draw from the data of one study; scales do not carry over between parts.

Block 1
Target: Histone acetyltransferase KAT6A, winged helix 1, GST fusion (KAT6A, Homo sapiens, UniProt Q92794, residues 1-85)
Method: protein binding microarray
Form: double-stranded DNA, one strand shown
Matrix: in vitro
Tested at: not given
Setting: 8-mer, flanks averaged, mean of 2 arrays, mostly near background
Reference: not given
Direction: higher = stronger binding
Target sequence (chain): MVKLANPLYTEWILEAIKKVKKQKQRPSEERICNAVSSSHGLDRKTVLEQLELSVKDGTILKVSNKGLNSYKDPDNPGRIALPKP
Sequence | E-score
GGACTCCA | -0.0425
GCAGATTA | -0.0731
AATCCAAG | -0.228
AGGCATAA | -0.149
CCGCTGTA | 0.186
GAACCTCC | -0.0193
AAACTCCT | -0.0839
GCGACTTA | 0.21

Block 2
Target: RNA binding protein fox-1 homolog 2, RRM domain, GST-SBP tag (RBFOX2, Homo sapiens, UniProt O43251-10, residues 100-194)
Method: RNA Bind-n-Seq
Form: RNA
Matrix: in vitro
Tested at: 365 nM
Setting: natural RNA segment, single round, ends assumed
Reference: no-protein control
Direction: higher = stronger binding
Shared flanks, not repeated: GGGAGUUCUACAGUCCGACGAUC … UGGAAUUCUCGGGUGCCAA
Construct (chain): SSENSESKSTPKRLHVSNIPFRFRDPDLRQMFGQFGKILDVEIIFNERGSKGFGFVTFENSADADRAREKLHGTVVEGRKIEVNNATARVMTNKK
Sequence | RBNS enrichment (R)
GACAUUUCUUCAAACUCCAAACUACUACCAGAAACACAUUUUAUCACCCAUUGUGAGAGUCACUUGGUCAAAUUUAGUUAAUGAGUCCAUUUUGAUCAUAAUGCACUCAC | 0.798
AGUCCCCACGUGGUCGAGUCUGGAUCUGUAAAACUCUUCUGAUAAUGGCAAUACUUUAGGGCAGAGAUAAAACCUUUUGGUAUUUUAGCUAGCCCCCAAAUCAAAAGCAC | 0.539
GAAACUCUUAGCCUGCAGAAUUUAAGACAAUGGCAGUUUUUAUCGUGAUUUGCCUUUGAACUUGGUCCUAUUGAAGUUCACAAUAAGUGGAAAACAAUUUUUUCAGAGAA | 0.511
ACUCAUUCUCUUACCUAGCGAACAAGAUCUUUUCAGAGUGGUGUUUCUAAAAGAGCAUGUACAAAAGUGGCCUGUGGACAUUUAGGCCUGGGUGAUGCAUUUGCUCUUCC | 0.639
AAUUAGAGUCAUCGCACCAGGGUGCAAUUUUAAUUUAAAAACUUAAAAGACUUUUCUAACUUCCCUAGUUUGUGUUUUUGUUUUUGCUUUGGUGGGGAAGGUCAGUGGGG | 4.36
AAUGGUUUUUUCACUGCCUGACCUUUAAAAGGCCAUCGAUAUUCUUUGCUCUUGCCAAAAUUGCACUAUUAUAGGACUUGUAUUGUUAUUUAAAUUACUGGAUUCUAAGG | 1.68
ACUGCUCUACUACACCAUCCACCGCGCCGCGCGCAUGUCCUUCCGUCAGCUCUUCCAGGACCUGGAGCGCUACGUGCAGGACGCCGAUGUGCGCUGGGAGUACUGCGUGC | 0.216
AGAGGAAAUCUCCCAGUCCCACUCUCGGAGGGUUAAGAGAAGGCCUCCUGCAGCUGUGCCGUCCACACCUCUAGGUCGCCAGAGCCCUGGCCCCCAGCCCCCAGCAAGCC | 0.287
AGCCUAGGAGCAGCUGCAAUUGCACCUGAGGGACAGGCCCUAGAGUUUGGUGGCCCAAGUCCUGAACCCCUCUUAGACCAGGUGAGGUGCAGAGGUGGUUGCUGCUUCCA | 0.499
CUUGGUCUCUCUGCAGUUCUGGGGACCCAACCAAGAGUCACGUGUCUAGGCCAGUGCUUUACCACUUAGCUAUACCCAGUCCUGUGUUACCUUGCUUUUGUGAACACGUC | 0.304
AAGGUGGCUUCUGCUCCAGAACUCUAUCCACUGUAUUUCCACAUCGUGAGUCAUUUUACUUUAAAAGGGAAAAACAAAUUUGUAGCAACUCUGAAGUAUCAAGAGUUUUA | 0.524

Block 3
Target: Interferon regulatory factor 7, full length, phosphomimetic (IRF7, Homo sapiens, UniProt Q92985, residues 1-503, S101K/S471D/S472D/S475D/S476D/S477D/S483D/S484D/S487D)
Method: protein-binding microarray
Form: double-stranded DNA, one strand shown
Matrix: in vitro
Tested at: 250 nM
Setting: 60-bp whole probe
Added: salmon DNA 0.4 mg/ml
Reference: random background probes
Direction: higher = stronger binding
Shared flanks, not repeated: GCCTAGCAC … GTCTTGATTCGCTTGACGCTGCTG
Target sequence (chain): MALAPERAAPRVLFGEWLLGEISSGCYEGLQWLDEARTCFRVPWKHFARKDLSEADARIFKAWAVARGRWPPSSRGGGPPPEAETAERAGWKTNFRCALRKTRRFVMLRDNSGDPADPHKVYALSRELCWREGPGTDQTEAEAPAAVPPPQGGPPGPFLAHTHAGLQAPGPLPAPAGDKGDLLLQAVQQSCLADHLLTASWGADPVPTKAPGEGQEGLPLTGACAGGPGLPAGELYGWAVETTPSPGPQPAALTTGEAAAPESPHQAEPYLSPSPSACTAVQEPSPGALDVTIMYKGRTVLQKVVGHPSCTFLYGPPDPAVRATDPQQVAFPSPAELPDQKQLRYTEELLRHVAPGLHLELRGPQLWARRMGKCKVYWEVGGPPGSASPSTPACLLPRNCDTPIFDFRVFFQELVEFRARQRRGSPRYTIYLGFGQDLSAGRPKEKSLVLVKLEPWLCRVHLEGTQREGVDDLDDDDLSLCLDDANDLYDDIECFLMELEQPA
Sequence | log fluorescence [z-score]
CACTCTCTGCTTGTATCTGGGTGCTAG | 0.818
GACGGTATCGACTATCGGGAGGTGCTA | -0.0613
TTAGGTTTCCTTTCCCCTTAGTGCTAG | 4.68
TTAGATTTCGCGTATCGATTAGTGCTA | 1.08
TTGTGTCTGGGCATTTTTTTAGTGCTA | -1.01
CTGCCTTTCAATCCTAGGCCGTGCTAG | 0.693
TTAGGTCTCGGTTGCGGTTAGTGCTAG | 2.42
TTAGGACTGGGTAACGGTTAGTGCTAG | 0.0804
TTAGTACTGGGACTGGGTTAGTGCTAG | 0.0659
TCAAAGCTCCTATCTTATACTGTGCTA | -0.0955
CTCACTCTGTCCCTCTGTGAGTGCTAG | 0.49

Other studies, line by line
Substance | target | test | test system | setting | scale | measurement | result
PhoQ, residues 284 288 289 292 302 303 TLASMF | PhoP, residues 12 14 15 18 19 QQAYL (Escherichia coli, UniProt P23836) | Sort-seq, refers to: YFP reporter | E. coli | PhoQ-PhoP variant library, added: 10 µM Mg2+ | reference: high Mg2+ state, higher = stronger signaling | fold induction | 1.97

For quick reference, copied from above (block 3):
Sequence | log fluorescence [z-score]
TTGTGTCTGGGCATTTTTTTAGTGCTA | -1.01
TCAAAGCTCCTATCTTATACTGTGCTA | -0.0955
TTAGATTTCGCGTATCGATTAGTGCTA | 1.08
CACTCTCTGCTTGTATCTGGGTGCTAG | 0.818
